Assay results collected from several papers.
Each line is one published result; not all experiments were run side by side.

O=C(Nc1ccc(Oc2nnc(-c3ccc(Cl)cc3)c3ccccc23)cc1)c1ccccc1
cell death (MCF7; cell growth or viability, MTT; 10 µM): 93.3%

Cc1ccc(N(O)N=Nc2ccc(S(=O)(=O)Nc3cc(C)on3)cc2)cc1
inhibition (DPPH scavenging, absorbance; 20 µg/mL): 13%

CCCC(=O)Nc1ccc(-c2ccc3ncn(Cc4ccc(C)cc4)c(=O)c3c2)cn1
IC50 (HCC827; cell growth or viability, CCK-8; 72 h): > 10 µM

C=C[C@@]1(C)C=C2CC[C@@H]3[C@](C)(CCC[C@@]3(C)C(=O)O)[C@H]2CC1
inhibition (Helicobacter pylori; microbial growth, broth dilution; 125 µg/mL): 100%

Cc1cc(C)c(C#N)c(SCC(=O)c2ccc(Cl)cc2Cl)n1
EC50 (Trypanosoma brucei; parasite growth, resazurin): 39.9 µM

CC(=NNC(=O)c1ccccc1)c1ccc(Nc2nnc(-c3ccc(Cl)cc3)c3ccccc23)cc1
cell death (HepG2; cell growth or viability, MTT; 0.625 µM): 51.3%

CC[C@H]1OC(=O)[C@H](C)[C@@H](O[C@H]2C[C@@](C)(OC)[C@@H](O)[C@H](C)O2)[C@H](C)[C@@H](O[C@@H]2O[C@H](C)C[C@H](N(C)C)[C@H]2O)[C@](C)(OC)C[C@@H](C)C(=O)[C@H](C)[C@@H](O)[C@]1(C)O
inhibition (Helicobacter pylori; microbial growth, broth dilution; 1.95 µg/mL): 100%

O=C1O[C@H]([C@@H](O)CO)C(O)=C1O
inhibition (DPPH scavenging, absorbance; 60 µg/mL): 55.1%

COc1ccc(-c2cc(=O)c3c(O)cc(O[C@@H]4O[C@H](CO)[C@@H](O)[C@H](O)[C@H]4O)cc3o2)cc1O
inhibition (Helicobacter pylori; microbial growth, broth dilution; 0.98 µg/mL): 100%

CCCN(O)N=Nc1ccc(S(=O)(=O)Nc2onc(C)c2C)cc1
inhibition (DPPH scavenging, absorbance; 60 µg/mL): 8.22%

COc1ccnc(SCC(=O)c2ccccc2)c1C#N
EC50 (Leishmania infantum; parasite growth; mouse Macrophage; intracellular, amastigote): 51 µM

CN(Cc1ccc(C(C)(C)C)cc1)Cc1cccc2ccccc12
inhibition zone (Trichophyton mentagrophytes; microbial growth, disc diffusion; ATCC18748; 0.008 µg/mL, 72 h): 44.2 mm

COc1cccc(C(=O)C[S+]([O-])c2nc(C)cc(C)c2C#N)c1 (centres unmarked)
EC50 (Trypanosoma brucei; parasite growth, resazurin; RHODESIENSE): 31 µM

CC(=NNC(=O)c1ccncc1)c1ccc(Nc2nnc(-c3ccc(Cl)cc3)c3ccccc23)cc1
cell death (HepG2; cell growth or viability, MTT; 5 µM): 95.5%

Cc1noc(NS(=O)(=O)c2ccc(N=NN(C)O)cc2)c1C
inhibition (DPPH scavenging, absorbance; 20 µg/mL): 5.3%

O=C1O[C@H]([C@@H](O)CO)C(O)=C1O
inhibition (DPPH scavenging; 62.5 µg/mL): 56.1%

O=C(O)c1ccc(O)cc1
inhibition (Helicobacter pylori; microbial growth, broth dilution; 3.9 µg/mL): 100%

COc1cc(-c2nc3ccccc3c(=O)n2Nc2ccc([N+](=O)[O-])cc2[N+](=O)[O-])ccc1OCc1cn(CC(=O)NCc2ccccc2)nn1
inhibition (DPPH scavenging, absorbance; 100 µM): 16.2%

COC(=O)c1ccc(O)cc1
inhibition (Helicobacter pylori; microbial growth, broth dilution; 3.9 µg/mL): 100%

CCCCn1cnc2ccc(-c3ccc(NC(=O)NC(C)(C)C)nc3)cc2c1=O
IC50 (NCI-H1975; cell growth or viability, CCK-8; 72 h): 5.66 µM

CC(C)(C)Nc1ccnc(Nc2cccc(-c3cccnc3)c2)n1
EC50 (BJ; cell growth or viability, ATP luminescence; 72 h): > 20 µM

CC(=O)Nc1ccc(Oc2nnc(-c3ccc(Cl)cc3)c3ccccc23)cc1
viability (HepG2; cell growth or viability, MTT; 1.25 µM, 24 h): 7.13%

Cc1cc(C)c(C#N)c(SCC(=O)c2ccc(F)cc2)n1
EC50 (Leishmania infantum; parasite growth; mouse Macrophage; intracellular, amastigote): 61.9 µM

COc1cc([C@H]2OC[C@H]3[C@@H]2CO[C@@H]3c2cc(OC)c(O)c(OC)c2)cc(OC)c1O
inhibition (Helicobacter pylori; microbial growth, broth dilution; 125 µg/mL): 100%

CN(O)N=Nc1ccc(S(=O)(=O)Nc2nccs2)cc1
inhibition (DPPH scavenging, absorbance; 300 µg/mL): 30.5%

CC#CCn1cnc2ccc(-c3ccc(NC(=O)CCCC)nc3)cc2c1=O
IC50 (HCC827; cell growth or viability, CCK-8; 72 h): > 10 µM

CC(=NNC(=O)c1ccc(N)cc1)c1ccc(Nc2nnc(-c3ccc(Cl)cc3)c3ccccc23)cc1
cell death (HepG2; cell growth or viability, MTT; 10 µM): 91.6%

COc1ccc(NC(=O)Cn2cc(COc3ccc(-c4nc5ccccc5c(=O)n4Nc4ccc([N+](=O)[O-])cc4[N+](=O)[O-])cc3OC)nn2)c(OC)c1
inhibition (DPPH scavenging, absorbance; 100 µM): 24.7%

CCN(O)N=Nc1ccc(S(=O)(=O)Nc2cc(C)on2)cc1
inhibition (DPPH scavenging, absorbance; 60 µg/mL): 20.9%

CNCc1cc(OC)cc2c1CN(c1cccc(-c3nncn3C(C)CC(F)(F)F)n1)C2=O (centres unmarked)
IC50 (NCI-H1975; cell growth or viability, CCK-8): 2.4 µM

CC(=NNC(=O)c1ccccc1O)c1ccc(Nc2nnc(-c3ccc(Cl)cc3)c3ccccc23)cc1
viability (HepG2; cell growth or viability, MTT; 0.312 µM, 24 h): 98.2%

Cc1noc(NS(=O)(=O)c2ccc(N=NN(O)c3ccccc3)cc2)c1C
inhibition (DPPH scavenging, absorbance; 180 µg/mL): 13%

COc1cc(-c2nc3ccccc3c(=O)n2Nc2ccc([N+](=O)[O-])cc2[N+](=O)[O-])ccc1OCc1cn(CC(=O)Nc2cccc(C)c2C)nn1
inhibition (DPPH scavenging, absorbance; 100 µM): 16.6%

Cc1cc(C)c(C#N)c(SCC(N)c2ccccc2)n1 (centres unmarked)
EC50 (Leishmania infantum; parasite growth; mouse Macrophage; intracellular, amastigote): 32.3 µM

O=c1cc(-c2ccc(O)c(O)c2)oc2cc(O)cc(O)c12
inhibition (Helicobacter pylori; microbial growth, broth dilution; 15.63 µg/mL): 100%

Cc1cc(NS(=O)(=O)c2ccc(N=NN(O)c3ccccc3)cc2)no1
inhibition (DPPH scavenging, absorbance; 300 µg/mL): 35%

Cc1cc(C(F)(F)F)c(C#N)c(SCC(=O)c2ccccc2)n1
EC50 (Trypanosoma brucei; parasite growth, resazurin): 32.6 µM

COc1cc(-c2cc(=O)c3c(O)cc(O)cc3o2)ccc1O
inhibition (Helicobacter pylori; microbial growth, broth dilution; 1.95 µg/mL): 73.2%

A few entries again:
Cc1ccc(N(O)N=Nc2ccc(S(=O)(=O)Nc3cc(C)on3)cc2)cc1
inhibition (DPPH scavenging, absorbance; 20 µg/mL): 13%

COc1ccc(-c2cc(=O)c3c(O)cc(O[C@@H]4O[C@H](CO)[C@@H](O)[C@H](O)[C@H]4O)cc3o2)cc1O
inhibition (Helicobacter pylori; microbial growth, broth dilution; 0.98 µg/mL): 100%

COc1cc(-c2nc3ccccc3c(=O)n2Nc2ccc([N+](=O)[O-])cc2[N+](=O)[O-])ccc1OCc1cn(CC(=O)NCc2ccccc2)nn1
inhibition (DPPH scavenging, absorbance; 100 µM): 16.2%

CN(Cc1ccc(C(C)(C)C)cc1)Cc1cccc2ccccc12
inhibition zone (Trichophyton mentagrophytes; microbial growth, disc diffusion; ATCC18748; 0.008 µg/mL, 72 h): 44.2 mm

O=C(Nc1ccc(Oc2nnc(-c3ccc(Cl)cc3)c3ccccc23)cc1)c1ccccc1
cell death (MCF7; cell growth or viability, MTT; 10 µM): 93.3%
